Experimental data pooled from the literature.
A part holds a random share of what one study measured. Substitutions count along the parent as printed.

Sample 1 — method: protein binding microarray; molecule type: double-stranded DNA, one strand shown; matrix: in vitro; concentration: not given; baseline: not given; direction: higher = stronger binding
Target: Histone acetyltransferase KAT6A, winged helix 1, GST fusion (KAT6A, Homo sapiens, UniProt Q92794, residues 1-85)
Setting: 8-mer, flanks averaged, mean of 2 arrays, mostly near background
Construct (chain): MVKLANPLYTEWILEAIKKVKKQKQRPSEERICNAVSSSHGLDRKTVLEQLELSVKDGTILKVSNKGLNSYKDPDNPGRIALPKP
Sequence	E-score
ACTCTCAA	-0.224
CAGTTAAA	-0.237
CTATGCAG	-0.185
CAAAGAGA	-0.149
AGGCCACG	0.0968
AATCAAGG	-0.0565
GCTCACTA	0.0324
AGATACCG	0.191
GCACGCCC	0.147

Sample 2 — method: universal PBM; molecule type: double-stranded DNA, one strand shown; matrix: in vitro; concentration: 600 nM; direction: higher = stronger binding
Target: Sal-like protein 4, full length isoform A (SALL4, Homo sapiens, UniProt Q9UJQ4, residues 1-1053)
UniProt Q9UJQ4, sequence (whole entry, looked up): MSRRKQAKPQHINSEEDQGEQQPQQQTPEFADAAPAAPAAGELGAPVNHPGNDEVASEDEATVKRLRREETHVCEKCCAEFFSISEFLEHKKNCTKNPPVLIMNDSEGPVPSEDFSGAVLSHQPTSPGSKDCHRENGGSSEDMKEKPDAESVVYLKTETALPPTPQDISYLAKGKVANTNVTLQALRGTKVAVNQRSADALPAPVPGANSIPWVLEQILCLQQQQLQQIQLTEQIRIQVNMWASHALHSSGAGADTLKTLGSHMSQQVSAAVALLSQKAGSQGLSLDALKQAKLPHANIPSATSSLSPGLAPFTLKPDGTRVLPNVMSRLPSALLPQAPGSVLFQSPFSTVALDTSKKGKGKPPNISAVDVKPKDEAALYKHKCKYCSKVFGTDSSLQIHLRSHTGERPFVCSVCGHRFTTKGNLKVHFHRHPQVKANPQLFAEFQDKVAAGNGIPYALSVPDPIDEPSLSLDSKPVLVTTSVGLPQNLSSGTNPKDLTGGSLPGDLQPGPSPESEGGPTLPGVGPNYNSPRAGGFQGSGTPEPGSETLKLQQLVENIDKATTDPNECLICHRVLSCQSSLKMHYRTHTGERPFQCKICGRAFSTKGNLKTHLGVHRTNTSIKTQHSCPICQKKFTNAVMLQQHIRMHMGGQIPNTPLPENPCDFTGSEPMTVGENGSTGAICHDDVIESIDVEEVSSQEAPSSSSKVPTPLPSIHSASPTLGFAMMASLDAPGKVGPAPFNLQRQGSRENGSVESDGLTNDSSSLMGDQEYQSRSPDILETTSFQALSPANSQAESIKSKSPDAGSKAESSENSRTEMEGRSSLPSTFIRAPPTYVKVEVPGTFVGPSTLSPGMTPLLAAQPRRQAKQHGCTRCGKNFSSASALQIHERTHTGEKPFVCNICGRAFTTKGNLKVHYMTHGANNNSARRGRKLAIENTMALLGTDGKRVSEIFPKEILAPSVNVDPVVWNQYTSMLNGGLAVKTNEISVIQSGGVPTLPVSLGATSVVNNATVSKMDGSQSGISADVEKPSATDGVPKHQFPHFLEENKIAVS
Setting: 8-mer, flanks averaged, mean of replicates
Sequence	E-score
ATGCGGTA	0.0252
AGGGTGGG	-0.199
GTGGCGCA	-0.0836
GTAAGAGA	0.0923
GCAACCGC	-0.191
CCTGCGTC	-0.307
CGCCCTTC	-0.361
AATACTTC	0.262
TCGCCACA	-0.126

Sample 3 — target: CCNF, cyclin fold, Cln2 fusion (human); method: yeast growth competition, sequencing; matrix: yeast; setting: strong parent motif; baseline: not given; direction: higher = stronger binding
Parent: CDKN1A docking peptide (human); SKACRRLFGPVDS; partner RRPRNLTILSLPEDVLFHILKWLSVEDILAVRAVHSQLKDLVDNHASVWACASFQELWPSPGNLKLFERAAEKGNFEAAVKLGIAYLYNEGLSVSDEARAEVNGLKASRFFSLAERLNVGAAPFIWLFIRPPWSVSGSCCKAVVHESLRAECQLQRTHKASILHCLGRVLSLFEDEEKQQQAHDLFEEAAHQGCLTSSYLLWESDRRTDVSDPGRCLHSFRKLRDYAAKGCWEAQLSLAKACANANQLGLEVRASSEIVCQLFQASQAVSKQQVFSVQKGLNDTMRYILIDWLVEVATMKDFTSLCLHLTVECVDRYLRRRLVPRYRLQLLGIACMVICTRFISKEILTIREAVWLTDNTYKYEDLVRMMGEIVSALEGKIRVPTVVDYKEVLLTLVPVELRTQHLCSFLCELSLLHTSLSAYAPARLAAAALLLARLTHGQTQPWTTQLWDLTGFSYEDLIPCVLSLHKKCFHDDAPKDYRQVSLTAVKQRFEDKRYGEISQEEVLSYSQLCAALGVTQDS
Substitution	normalised enrichment score
K2L	6.98
A3T	8.41
K2Y	7.75
C4L	1.55
V11F	7.63
K2A	7.31

Mixed results
Molecule	target	assay	test system	setting	scale	measurement	result
PhoQ, residues 284 288 289 292 302 303 TTSMTC	PhoP, residues 12 14 15 18 19 LWHCS (Escherichia coli, UniProt P23836)	Sort-seq, item: YFP reporter	E. coli	PhoQ-PhoP variant library, added: 10 µM Mg2+	baseline: high Mg2+ state, higher = stronger signaling	fold induction	12.3
